Experimental data from different studies.
Numbered parts are unrelated; each lists some results of a single study.
UniProt Q32MK0, sequence (whole entry, looked up): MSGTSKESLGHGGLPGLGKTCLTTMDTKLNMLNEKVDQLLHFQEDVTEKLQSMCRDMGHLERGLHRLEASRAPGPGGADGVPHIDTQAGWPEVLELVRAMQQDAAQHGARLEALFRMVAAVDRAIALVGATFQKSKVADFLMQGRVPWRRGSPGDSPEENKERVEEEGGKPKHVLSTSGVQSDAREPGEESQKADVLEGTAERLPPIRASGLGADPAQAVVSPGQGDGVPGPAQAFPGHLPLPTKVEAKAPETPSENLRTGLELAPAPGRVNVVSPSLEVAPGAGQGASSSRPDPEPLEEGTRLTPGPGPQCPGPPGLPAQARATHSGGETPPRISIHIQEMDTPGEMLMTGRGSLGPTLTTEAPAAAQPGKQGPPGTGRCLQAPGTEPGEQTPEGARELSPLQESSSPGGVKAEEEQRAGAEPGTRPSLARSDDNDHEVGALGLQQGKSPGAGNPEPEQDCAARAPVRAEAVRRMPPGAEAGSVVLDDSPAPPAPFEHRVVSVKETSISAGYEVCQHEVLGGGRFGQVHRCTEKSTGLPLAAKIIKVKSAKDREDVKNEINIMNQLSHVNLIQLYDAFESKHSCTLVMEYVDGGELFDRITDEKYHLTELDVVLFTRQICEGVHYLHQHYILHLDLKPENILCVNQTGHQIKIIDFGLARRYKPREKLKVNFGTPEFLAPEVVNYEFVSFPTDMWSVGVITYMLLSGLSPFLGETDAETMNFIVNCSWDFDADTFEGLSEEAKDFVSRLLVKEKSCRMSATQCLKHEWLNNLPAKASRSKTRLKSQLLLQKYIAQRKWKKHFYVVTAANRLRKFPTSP
UniProt Q16513, sequence (whole entry, looked up): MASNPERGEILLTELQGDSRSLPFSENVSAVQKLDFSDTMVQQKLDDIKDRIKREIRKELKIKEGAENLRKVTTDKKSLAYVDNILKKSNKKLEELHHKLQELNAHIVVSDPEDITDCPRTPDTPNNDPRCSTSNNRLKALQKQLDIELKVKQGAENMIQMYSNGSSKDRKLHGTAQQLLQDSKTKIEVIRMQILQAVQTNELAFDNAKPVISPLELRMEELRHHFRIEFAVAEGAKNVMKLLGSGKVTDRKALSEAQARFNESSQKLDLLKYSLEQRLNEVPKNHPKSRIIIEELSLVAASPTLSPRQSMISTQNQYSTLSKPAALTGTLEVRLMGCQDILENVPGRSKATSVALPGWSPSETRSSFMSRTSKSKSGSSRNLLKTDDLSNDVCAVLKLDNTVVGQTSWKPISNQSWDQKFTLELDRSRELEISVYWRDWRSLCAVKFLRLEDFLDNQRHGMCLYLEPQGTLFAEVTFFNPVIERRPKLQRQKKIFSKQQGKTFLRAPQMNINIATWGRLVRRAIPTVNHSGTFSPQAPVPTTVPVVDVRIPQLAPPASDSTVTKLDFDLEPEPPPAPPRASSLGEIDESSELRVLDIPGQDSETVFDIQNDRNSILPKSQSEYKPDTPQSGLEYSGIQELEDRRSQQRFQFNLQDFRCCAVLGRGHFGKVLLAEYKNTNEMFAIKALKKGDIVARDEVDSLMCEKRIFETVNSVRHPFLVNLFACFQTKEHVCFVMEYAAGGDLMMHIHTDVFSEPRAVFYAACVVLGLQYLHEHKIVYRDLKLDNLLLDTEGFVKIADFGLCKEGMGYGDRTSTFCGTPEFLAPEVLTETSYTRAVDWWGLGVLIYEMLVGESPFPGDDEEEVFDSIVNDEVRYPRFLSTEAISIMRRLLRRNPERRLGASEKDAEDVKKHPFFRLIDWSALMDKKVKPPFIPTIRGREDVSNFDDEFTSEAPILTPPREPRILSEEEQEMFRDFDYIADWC
UniProt Q9UK32, sequence (whole entry, looked up): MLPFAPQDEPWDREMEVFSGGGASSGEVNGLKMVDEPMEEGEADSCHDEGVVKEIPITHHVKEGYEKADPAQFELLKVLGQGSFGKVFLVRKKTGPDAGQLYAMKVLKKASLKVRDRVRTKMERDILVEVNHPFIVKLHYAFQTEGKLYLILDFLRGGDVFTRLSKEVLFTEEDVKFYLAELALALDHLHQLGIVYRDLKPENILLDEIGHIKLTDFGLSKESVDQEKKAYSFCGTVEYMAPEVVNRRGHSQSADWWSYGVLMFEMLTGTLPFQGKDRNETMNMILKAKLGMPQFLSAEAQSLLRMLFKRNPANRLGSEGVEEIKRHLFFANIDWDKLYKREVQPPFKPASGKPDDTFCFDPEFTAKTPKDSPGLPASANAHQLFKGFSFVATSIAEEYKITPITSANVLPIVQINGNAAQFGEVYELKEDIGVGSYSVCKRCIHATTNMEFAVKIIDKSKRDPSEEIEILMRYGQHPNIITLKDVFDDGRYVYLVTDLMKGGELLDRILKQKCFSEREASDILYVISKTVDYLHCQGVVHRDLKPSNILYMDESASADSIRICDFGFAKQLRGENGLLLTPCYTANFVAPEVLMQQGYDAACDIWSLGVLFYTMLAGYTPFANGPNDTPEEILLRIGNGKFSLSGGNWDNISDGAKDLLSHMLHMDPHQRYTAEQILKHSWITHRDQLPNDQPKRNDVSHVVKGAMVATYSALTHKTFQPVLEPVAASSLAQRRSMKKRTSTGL
UniProt Q07002, sequence (whole entry, looked up): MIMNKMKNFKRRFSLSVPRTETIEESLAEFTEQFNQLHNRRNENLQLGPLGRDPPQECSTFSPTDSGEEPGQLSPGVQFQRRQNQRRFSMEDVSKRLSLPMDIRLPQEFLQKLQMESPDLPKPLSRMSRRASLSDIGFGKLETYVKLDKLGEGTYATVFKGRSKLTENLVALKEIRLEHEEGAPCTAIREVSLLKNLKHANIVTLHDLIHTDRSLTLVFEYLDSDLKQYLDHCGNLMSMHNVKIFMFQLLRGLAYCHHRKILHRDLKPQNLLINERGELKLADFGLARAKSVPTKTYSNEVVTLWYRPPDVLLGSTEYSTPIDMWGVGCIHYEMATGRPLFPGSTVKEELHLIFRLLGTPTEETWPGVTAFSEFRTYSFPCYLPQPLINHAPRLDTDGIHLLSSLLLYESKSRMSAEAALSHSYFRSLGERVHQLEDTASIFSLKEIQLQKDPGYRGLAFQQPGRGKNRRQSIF
UniProt Q9H2K8, sequence (whole entry, looked up): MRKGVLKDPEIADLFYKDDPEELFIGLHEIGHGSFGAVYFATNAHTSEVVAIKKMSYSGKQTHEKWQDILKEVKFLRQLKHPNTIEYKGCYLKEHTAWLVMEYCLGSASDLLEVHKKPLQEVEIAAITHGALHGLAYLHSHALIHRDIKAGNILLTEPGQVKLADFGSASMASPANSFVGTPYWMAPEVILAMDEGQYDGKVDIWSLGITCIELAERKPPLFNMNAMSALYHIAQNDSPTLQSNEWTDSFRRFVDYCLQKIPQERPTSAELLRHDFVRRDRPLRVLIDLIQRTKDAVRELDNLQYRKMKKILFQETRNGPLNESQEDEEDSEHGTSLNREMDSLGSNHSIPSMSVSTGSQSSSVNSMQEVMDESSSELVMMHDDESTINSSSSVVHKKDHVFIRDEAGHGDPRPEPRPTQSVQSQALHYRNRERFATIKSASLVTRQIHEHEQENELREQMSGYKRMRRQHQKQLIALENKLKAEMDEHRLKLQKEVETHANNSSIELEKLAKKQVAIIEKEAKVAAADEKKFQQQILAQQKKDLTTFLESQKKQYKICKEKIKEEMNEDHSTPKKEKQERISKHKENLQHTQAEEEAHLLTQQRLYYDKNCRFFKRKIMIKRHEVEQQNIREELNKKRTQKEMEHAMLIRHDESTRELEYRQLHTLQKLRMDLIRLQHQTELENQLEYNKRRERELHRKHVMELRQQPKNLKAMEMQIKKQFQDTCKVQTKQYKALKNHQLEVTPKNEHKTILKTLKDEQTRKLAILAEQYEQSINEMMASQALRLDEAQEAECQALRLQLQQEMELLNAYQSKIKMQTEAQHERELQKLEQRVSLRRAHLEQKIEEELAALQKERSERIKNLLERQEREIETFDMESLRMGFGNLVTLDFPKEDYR
UniProt Q16832, sequence (whole entry, looked up): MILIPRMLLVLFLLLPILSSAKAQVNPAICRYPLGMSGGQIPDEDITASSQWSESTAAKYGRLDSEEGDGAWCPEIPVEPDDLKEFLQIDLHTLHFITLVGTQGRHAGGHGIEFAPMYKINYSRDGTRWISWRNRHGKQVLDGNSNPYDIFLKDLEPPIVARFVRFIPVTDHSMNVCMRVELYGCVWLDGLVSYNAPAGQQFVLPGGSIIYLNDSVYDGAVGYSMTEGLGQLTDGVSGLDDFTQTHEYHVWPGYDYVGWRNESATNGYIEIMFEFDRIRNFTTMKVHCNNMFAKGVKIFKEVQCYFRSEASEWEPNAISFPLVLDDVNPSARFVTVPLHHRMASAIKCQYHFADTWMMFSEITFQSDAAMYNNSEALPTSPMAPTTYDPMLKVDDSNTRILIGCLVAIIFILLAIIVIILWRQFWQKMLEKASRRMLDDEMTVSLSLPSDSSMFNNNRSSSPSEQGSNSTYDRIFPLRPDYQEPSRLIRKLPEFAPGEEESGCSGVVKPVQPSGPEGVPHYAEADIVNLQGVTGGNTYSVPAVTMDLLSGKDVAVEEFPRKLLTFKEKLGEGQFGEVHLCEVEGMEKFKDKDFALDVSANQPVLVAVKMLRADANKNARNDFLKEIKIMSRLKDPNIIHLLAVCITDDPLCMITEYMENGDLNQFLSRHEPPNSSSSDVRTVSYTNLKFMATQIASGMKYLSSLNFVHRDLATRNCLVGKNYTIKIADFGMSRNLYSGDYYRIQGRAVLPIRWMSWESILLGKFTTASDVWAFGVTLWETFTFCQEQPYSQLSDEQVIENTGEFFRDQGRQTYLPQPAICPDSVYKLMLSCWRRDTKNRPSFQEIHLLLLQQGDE

Study 1
Compound: CO[C@@H](C)c1c(Nc2ccc([C@H](N(C)C(=O)C3CCS(=O)(=O)CC3)C(F)(F)F)cc2)cnc2cc(Cl)nn12
Observed: cell-free assay
Technique: competition with immobilised ligand
Tested at: 1 µM
target | remaining binding [%]
Serine/threonine-protein kinase N2 (PKN2, Homo sapiens, UniProt Q16513) | 100
Ephrin type-A receptor 8 (EPHA8, Homo sapiens, UniProt P29322) | 91
Non-receptor tyrosine-protein kinase TYK2, JH1 (TYK2, Homo sapiens, UniProt P29597) | 100
Serine/threonine-protein kinase 26 (STK26, Homo sapiens, UniProt Q9P289) | 100
Cyclin-dependent kinase-like 2 (CDKL2, Homo sapiens, UniProt Q92772) | 90
Ribosomal protein S6 kinase alpha-6, N-terminal kinase domain (RPS6KA6, Homo sapiens, UniProt Q9UK32) | 100
Cyclin-dependent kinase 18 (CDK18, Homo sapiens, UniProt Q07002) | 93
Discoidin domain-containing receptor 2 (DDR2, Homo sapiens, UniProt Q16832) | 100
Serine/threonine-protein kinase PLK4 (PLK4, Homo sapiens, UniProt O00444) | 100
Mitogen-activated protein kinase kinase kinase 9 (MAP3K9, Homo sapiens, UniProt P80192) | 100
Epidermal growth factor receptor (EGFR, Homo sapiens, UniProt P00533, del746-750) | 98
Serine/threonine-protein kinase TAO3 (TAOK3, Homo sapiens, UniProt Q9H2K8) | 100
Ribosomal protein S6 kinase beta-1 (RPS6KB1, Homo sapiens, UniProt P23443) | 100
Myosin light chain kinase (MYLK3, Homo sapiens, UniProt Q32MK0) | 84

Study 2
Organism: Sarcocystis neurona
Observed: parasite growth
Tested at: 10 µM
Notes: secondary screen
Compound | inhibition [%]
O=C(CCCN1CC=C(n2c(=O)[nH]c3ccccc32)CC1)c1ccc(F)cc1 | -2
CC12CC3CC(C)(C1)CC(N)(C3)C2 | -32.3
O=c1c(-c2ccccc2)c1-c1ccccc1 | 85.4
COc1cc([C@@H]2c3cc4c(cc3[C@@H](O[C@@H]3O[C@@H]5CO[C@@H](C)O[C@H]5[C@H](O)[C@H]3O)[C@H]3COC(=O)[C@H]23)OCO4)cc(OC)c1O | -45.1
Cc1nc2n(c(=O)c1CCN1CCC(c3noc4cc(F)ccc34)CC1)CCCC2 | -18.4
CC[C@H](C)C(=O)O[C@H]1C[C@@H](C)C=C2C=C[C@H](C)[C@H](CC[C@@H]3C[C@@H](O)CC(=O)O3)[C@H]21 | -39.7
Cc1ccc(N(CC2=NCCN2)c2cccc(O)c2)cc1 | -21.9

Study 3
Technique: PRP chromatography
Notes: linear fit, 1 mL
Structure (SMILES) | logD 1,9-decadiene/water
CC(C)C[C@@H]1NC(=O)[C@@H](C)NC(=O)[C@H](Cc2cscn2)NC(=O)[C@H](C)NC(=O)[C@H](C(C)C)NC(=O)[C@H](CC(C)C)NC(=O)[C@@H](CC(C)C)NC1=O | -1.82 log units
CC(C)C[C@@H]1NC(=O)[C@H](C)NC(=O)[C@@H](CC(C)C)NC(=O)[C@H](C)NC(=O)[C@H](CC(C)C)NC(=O)[C@H](CC(C)C)NC(=O)[C@H](CC(C)C)NC1=O | -0.291 log units
CC(C)C[C@@H]1NC(=O)[C@H](CC(C)C)NC(=O)[C@@H](CC(C)C)NC(=O)[C@H](C(C)C)NC(=O)[C@H](C(C)C)NC(=O)[C@H](C)NC(=O)[C@H](C)NC1=O | -1.21 log units
CC(C)C[C@@H]1NC(=O)[C@H](C(C)C)NC(=O)[C@H](CCC(=O)N2CCCC2)NC(=O)[C@H](CC(C)C)NC(=O)[C@@H](Cc2cscn2)NC(=O)[C@H](CC(C)C)NC(=O)[C@@H](CC(C)C)NC1=O | -0.687 log units
CC(C)C[C@@H]1NC(=O)[C@H](CC(C)C)NC(=O)[C@@H](C(C)C)NC(=O)[C@H](C(C)C)NC(=O)[C@H](C)NC(=O)[C@@H](CC(C)C)NC(=O)[C@H](C)NC1=O | -1.33 log units

Study 4
Species: human
Matrix: microsomes or S9
Tested at: 2 µM
Time: 0.5 h
SMILES | remaining compound [%]
Cc1nc2nc(N3C(=O)CCC3=O)nn2c(C)c1Cl | 69.9
COC(=O)c1cc2cc(-c3ccccc3)c3ccccc3c2o1 | 57
CCC(NC(=O)NCCc1cnn(C)c1C)c1c(C)noc1C (stereo not shown) | 75.7
Oc1cc(O)c2sc3nc(-c4ccccc4Cl)ccc3c2n1 | > 99
CC(=O)N1CCc2[nH]cnc2C12CCN(C(=O)C(F)c1ccccc1)CC2 (stereo not shown) | > 100

A few entries again (study 1):
target | remaining binding [%]
Serine/threonine-protein kinase N2 (PKN2, Homo sapiens, UniProt Q16513) | 100
Ephrin type-A receptor 8 (EPHA8, Homo sapiens, UniProt P29322) | 91
Non-receptor tyrosine-protein kinase TYK2, JH1 (TYK2, Homo sapiens, UniProt P29597) | 100
Serine/threonine-protein kinase 26 (STK26, Homo sapiens, UniProt Q9P289) | 100
